Measured values from different studies.
Numbered parts are unrelated; each lists some results of a single study.

Block 1 — technique: RNA Bind-n-Seq; molecule type: RNA; sample: in vitro; concentration: 365 nM; reference: no-protein control; direction: higher = stronger binding
Target: RNA binding protein fox-1 homolog 2, RRM domain, GST-SBP tag (RBFOX2, Homo sapiens, UniProt O43251-10, residues 100-194)
Notes: natural RNA segment, single round, ends assumed
Constant ends, left off below: GGGAGUUCUACAGUCCGACGAUC … UGGAAUUCUCGGGUGCCAA
Target sequence (chain): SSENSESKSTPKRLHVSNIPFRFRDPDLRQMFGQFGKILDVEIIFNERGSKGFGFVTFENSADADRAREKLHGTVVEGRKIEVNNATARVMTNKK
Oligonucleotide	RBNS enrichment (R)
AAAAACAAUUUUUUUCAUAACAUAAUUCCCAUUUUUAUUUAUUUUGAGUCACUCAUAAUUAAUUGCCAAAAAAGCAUUUUAUACAUUGAGUUGGGGGGUAGUGGAUCUUA	0.677
UAAAUCAGAGAUUAUUCAACAGAGAGGGAGAAAGGAGGAGACAGAGGGAGGACCUGUUGUGUUCCAGCCAUUCUGGUAUUCCUUUAUGUAUCUAAUUUCAUUCAAACCUC	0.346
UAUUUUACUGGGAAGACGUGUAACUCUUUGGGUUAUUACUGUCUUUACUUCUAAAGAAGUUAGCUUGAACUGAGGAGUAAAAGUGUGUACAUAUAUAAUAUACCCUUACA	0.319
GAAGAAAAAAACAUGGUAGGGAAGGAGCUCUGCUGCCUCUUUGCCCUACAACCAUGGCAUUGCAAAAAUAACCACCUUUUUCUUUUUUUAAAUAAACUUUAUUUAAGUCA	0.656
UUGUACUGUAACUACCUCAUGGUUUGAAUGAUGAUUGUACUGCUGGUUGUGUUAACAGAGCACAUUUUGUUGGGUGAGUCCUAUGUGAUUUUUUUCAUGUUUGUUUUAUC	3.29
AGGACUCUGCGGAUCAGUGCUACAGGAGUACAUCUGCCCUGCCACAUGACUCCAGAAGUCUCUGACCCCAUUUGUUUUUAAUGGCAUCAGCCAAUGAGUUAUCACCCUUU	0.374
UGGCCAUGUAGAGGAAAAGAUAUGGAGUUAUGUGGAUUUCAUCACUAGUAUGUGUGCGUGAGCUGGUCAGUUGCCAAAGGAGGAAAUAAGGUUAGAAGCCUGAACCGUUA	3.52
GCUUUCCGCGUACAGAAGUGCUUGCCCGGGGAGUCCCGCCUGACCUGCCUUCAUGUGGACCCUUAGAACAGCACUGGGAGACCAGCAGGACUCCUGAGAACUGUGCUGGU	0.371
AAAUAAAUUUGCACUGUUCAUUUUUCUGGCCUCGCUGUUCUCCAUAGAGCAAGGGUAAUCCUAGAAAAAAUUUUUUUUUUUUAAAUUAUGCAACGUAAGAUGUCCUCCUU	0.515
GGGCUGCGGAAGGUACAAGGCGAGGUUAUGGGGCUGCUCUUCACUUUUUGUUUUUAAAUGAAGACCUCUGAAAAGCACAGGGCCUCUGCUCCUUCUGGCUCUGAUGUCCU	0.223
UCCCAGGCUCUUCUCAUCAGAGACUUCAGUUUGGGUGGGGAGUCUGCAGGUCAGGGAAGGUUCUGGUGCUUUUCGUUUGAUCCAAAAGGAGCUGAGAGCCAGAAAUGUGG	0.599
UUUCUGUUAUAGUAACAAAAUAGAGUUAUGUAGAAUUGUAUGGAACUCAAAUUUAAACCAUGCUUUCUUGUAGUACUGAUUGAAACUUACACGUUUUAUUCUACUCAUAG	0.627

Block 2 — technique: protein-binding microarray; molecule type: double-stranded DNA, one strand shown; sample: in vitro; concentration: 0.8 µM; notes: whole 60-bp probe, no competitor; direction: higher = stronger binding; constant ends, left off below: … GTCTTGATTCGCTTGACGCTGCTG
Target: Centromere-binding protein 1, full length, N-terminal tag (CBF1, Saccharomyces cerevisiae, UniProt P17106, residues 1-351)
UniProt P17106, sequence (whole entry, looked up): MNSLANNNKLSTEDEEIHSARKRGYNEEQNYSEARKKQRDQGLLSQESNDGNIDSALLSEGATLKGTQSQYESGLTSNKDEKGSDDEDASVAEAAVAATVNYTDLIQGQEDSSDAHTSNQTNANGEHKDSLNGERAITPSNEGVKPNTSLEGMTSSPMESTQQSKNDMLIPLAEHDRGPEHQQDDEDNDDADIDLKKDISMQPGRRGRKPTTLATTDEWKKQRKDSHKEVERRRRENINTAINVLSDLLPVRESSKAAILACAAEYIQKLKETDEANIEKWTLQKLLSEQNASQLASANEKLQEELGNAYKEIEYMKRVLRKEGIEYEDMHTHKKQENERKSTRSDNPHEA
Oligonucleotide	fluorescence intensity
TGTACGAAGCTATGTCATGTGAGTATAGTAGTTAGG	1670 a.u.
GAACTGATATATATACACGTGAAGCAAAAAAGGTAG	3950 a.u.
CTACACAATTCAAGTCACGTGGAAAGGCCTTCATTC	15300 a.u.
CCTAACTACTATAAGCACGACCTATAGCTTCGTACA	507 a.u.
GAAATTCGTATGAAATTGGTGACGTTAATCTAATAG	515 a.u.
CTACGTACCGCTTCTCAGCTGTTCTTGCCGTCCTTC	512 a.u.
GAAGTCCAAACATGACTCACGAGTGGAGTCAAGTAG	549 a.u.
CTATATCTTTAGATTAACGTCACCAATTTCATATTC	529 a.u.
CTATTCCCTTACCATCATCTGATCCGGGAAAGGTTC	726 a.u.
CTAGCGCGCGGTGTGATGGTGATGATAATGATGTTC	571 a.u.
CTAAAATTTAACAATATGGTGAATTAAGTGTTGTTC	504 a.u.
GAATCGCCGTTACCCCACGAATCACTTATAACGTAG	515 a.u.
CTAACGTAAGTTAAAGGTGACAAGCTCGGATCGTTC	573 a.u.
GAAAAGAGCTATAGAGAAGTCACAGGATATAGATAG	751 a.u.
CTAGACAGTGGCAGTGTCACCACCACCAATGATTTC	511 a.u.
CTAATTTCTATAAGCCACCAGATATCAATAAAATTC	535 a.u.
CTAGTGACAGAGTCTCAGGTGAAACAAATTAATTTC	509 a.u.
CTACCAAGATCAAATCTCACATGTTTATCATTCTTC	636 a.u.

Block 3 — technique: RNA Bind-n-Seq; molecule type: RNA; sample: in vitro; concentration: 200 nM; notes: whole 134-nt RNA, ends assumed; added: 150 mM KCl; reference: input library; direction: higher = stronger binding
Target: Ras GTPase-activating protein-binding protein 1, full length (G3BP1, Homo sapiens, UniProt Q13283)
UniProt Q13283, sequence (whole entry, looked up): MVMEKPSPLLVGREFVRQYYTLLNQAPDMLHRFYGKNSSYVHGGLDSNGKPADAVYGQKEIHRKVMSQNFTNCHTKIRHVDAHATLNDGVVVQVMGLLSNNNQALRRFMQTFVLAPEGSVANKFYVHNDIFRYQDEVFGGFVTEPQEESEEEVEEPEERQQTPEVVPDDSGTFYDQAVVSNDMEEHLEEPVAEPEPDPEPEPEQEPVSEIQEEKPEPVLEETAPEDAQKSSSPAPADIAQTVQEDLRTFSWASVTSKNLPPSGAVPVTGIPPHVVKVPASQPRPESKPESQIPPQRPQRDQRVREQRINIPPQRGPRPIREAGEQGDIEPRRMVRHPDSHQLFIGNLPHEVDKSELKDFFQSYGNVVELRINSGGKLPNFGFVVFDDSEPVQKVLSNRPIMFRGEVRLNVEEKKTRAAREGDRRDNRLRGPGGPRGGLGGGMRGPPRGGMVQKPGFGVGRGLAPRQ
Constant ends, left off below: GGGAGUUCUACAGUCCGACGAUC … UGGAAUUCUCGGGUGUCAAGG
Oligonucleotide	log2 enrichment
UCCUGUGCUACACAUCGUAUGUACCGAAUCGGGGAAAAAGGGGUUUUUUUGGGGUGGGGAAAGUAUUAUGUUACGCCGUUCGGAUCUGCA	0.838
AGUCCUGUGCUACACAUCGUAUGUACCGAAUCGGGUUUUUGGUUUUUGGGGUUUUUGGAAAGUAUUAUGUUACGCCGUUCGGAUCUGCAC	-0.982
ACCAUGCAGGUGGGCAUCUUUGGGAAGUGGGGCAAGGGGGGGAUAGGGAGGGGGGUAACACUUUGGGAACAGUUGGUCCCAGGUCGUUUC	0.93
UGGGAGGUGGAUUUUGUUUAUUUUUUUAGCUCAUUUCCAGGGGUGGGAAUUUUUUUUUAAUAUGUGUCAUGAAUAAAGUUGUUUUUGACA	0.464
AAGUCCUGUGCUACACAUCGUAUGUACCGAAUCGGGGAAAGGGGAAAGGGAAAGGGGAAAGUAUUAUGUUACGCCGUUCGGAUCUGCACU	0.209
UCCUGUGCUACACAUCGUAUGUACCGAAUCGGGGUUUUUGGGGUUUUUGGUUUUUGGGGAAAGUAUUAUGUUACGCCGUUCGGAUCUGCA	-0.128
CCUGUGCUACACAUCGUAUGUACCGAAUCGGGGAAAAAAAGGAAAAAAAGGAAAAAAAGGAAAGUAUUAUGUUACGCCGUUCGGAUCUGC	-0.372
UCAAGUCCUGUGCUACACAUCGUAUGUACCGAAUCGGGUUUUUGGGUGGGAGGGAAAGUAUUAUGUUACGCCGUUCGGAUCUGCACUUCC	0.678
CCUGUGCUACACAUCGUAUGUACCGAAUCGGGUUUUUUUGGGAAAAAAAGGGAAAAAGGGAAAGUAUUAUGUUACGCCGUUCGGAUCUGC	-1.05
UGCAGUGAUGGUCAUUGUCCUCCAGAGCAGUGAUGGAGGAAAUACCAGCCCAGGAAGCAGCAGGGUCACCAAGGGUCCAGUUUCAGUCUU	-0.513
CCUGUGCUACACAUCGUAUGUACCGAAUCGGCCCCCCGGGGCCCCCCGGGGCCCCCCGGGAAAGUAUUAUGUUACGCCGUUCGGAUCUGC	-0.91
GCAGGAAGUAAAAACAAAUGGAAAUGCUUCGGAUAGUGGCAGGGGUGGGGGUUGCUAAGCAAAGGGUGGGAUGGGAGUGGGUAAAGAGUU	0.773
UGGGAGGUGGAUUUUGUUUAUUUUUUUAGCCCAUUUCCAGGGGUGGGAAUUUUUUUUUAAUAUGUGUCAUGAAUAAAGUUGUUUUUGAAA	0.0639
UGGGAGGUGGAUUUUGUUUAUUUUUUUAGCUCAUUUCCAGGGGUGGGAAUUUUUUUUUAAUAUGUGUCACGAAUAAAGUUGUUUUUGAAA	0.469

Block 4 — technique: protein binding microarray; molecule type: double-stranded DNA, one strand shown; sample: in vitro; concentration: not given; reference: not given; direction: higher = stronger binding
Target: Histone acetyltransferase KAT6A, winged helix 2, GST fusion (KAT6A, Homo sapiens, UniProt Q92794, residues 85-181)
Notes: 8-mer, flanks averaged, mean of 2 arrays, mostly near background
Target sequence (chain): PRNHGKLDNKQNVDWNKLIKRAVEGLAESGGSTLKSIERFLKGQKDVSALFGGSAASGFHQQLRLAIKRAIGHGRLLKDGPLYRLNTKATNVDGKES
Oligonucleotide	E-score
CCATATTC	0.0757
AGGTACTG	0.046
CTGATTCC	-0.065
TAGTGACA	-0.0139
ACTTTCGC	-0.0926
CCGAAAAA	0.166
TGGCTTAA	-0.0165
CATGGTAG	-0.129
AACTATGC	0.0483
ATTCCCTA	0.052
ACAGCAAT	0.141
ACCCCGTG	-0.0376
GCGTCCAC	0.0831
AGCTTCTC	-0.17
ACGATCCC	-0.161
ACCAGCTC	0.127
AAAAGATG	-0.0217
CAGCCACG	-0.0256

Block 5 — technique: universal PBM; molecule type: double-stranded DNA, one strand shown; sample: in vitro; concentration: not given; direction: higher = stronger binding
Target: Sal-like protein 4, full length isoform B (SALL4, Homo sapiens, UniProt Q9UJQ4-2, residues 1-616)
Notes: 8-mer, flanks averaged, mean of replicates
Oligonucleotide	E-score
ACACAAAC	0.116
ATGAGTCC	-0.0196
AATAGGGC	-0.0186
CGTCACAG	-0.0638
ATCGTGCA	-0.00971
CGCGCGAC	-0.285
CGCTCGGA	-0.153
CGATCGCA	0.013
CTACCGCA	-0.0138
TACTTCCA	0.104
GTATTGGA	0.148
CAAGACGG	-0.229
ATAGCTAC	0.234
AACGACCC	-0.216
CCTTTGCC	-0.0251
AGCTAAAC	-0.115
AATTCAAA	0.324
CATTCTCA	0.108
TCGCCCGA	-0.225
CAAAAGGA	0.13
GTAAACCA	0.0629
GTATTGCA	0.0683
GCACAAGC	-0.034
ATGTGCGG	-0.113
TGCTAAAA	0.0882

A few entries again (block 4):
Oligonucleotide	E-score
CTGATTCC	-0.065
TAGTGACA	-0.0139
ACTTTCGC	-0.0926
CCGAAAAA	0.166
TGGCTTAA	-0.0165
CATGGTAG	-0.129
AACTATGC	0.0483
ATTCCCTA	0.052
ACAGCAAT	0.141
ACCCCGTG	-0.0376
GCGTCCAC	0.0831
AGCTTCTC	-0.17
ACGATCCC	-0.161
ACCAGCTC	0.127
AAAAGATG	-0.0217
